Assay results of several laboratories.
Every numbered part comes from another study and shows a few of its results, in no order.
Chain of UniProt P62837 (whole entry, looked up): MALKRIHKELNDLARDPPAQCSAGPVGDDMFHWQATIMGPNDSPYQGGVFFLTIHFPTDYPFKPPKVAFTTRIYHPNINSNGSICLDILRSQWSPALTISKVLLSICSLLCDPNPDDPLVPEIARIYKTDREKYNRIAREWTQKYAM

Set 1
Target: Fragile X messenger ribonucleoprotein 1, C-terminal low-complexity region (Fmr1, Mus musculus, UniProt P35922)
Method: RNA Bind-n-Seq
Form: RNA
Medium: in vitro
Concentration: 200 nM
Notes: whole 134-nt RNA, ends assumed
With: 150 mM LiCl
Relative to: input library
Direction: higher = stronger binding
All molecules: 7-deaza-guanosine replaces G
Shared flanks, not repeated: GGGAGUUCUACAGUCCGACGAUC … UGGAAUUCUCGGGUGUCAAGG
With `AGUAGCUAUGGUCAACAAAGCAGCUAUGGGCAGCAGCCUCCCACUAGUUACCCACCCCAAACUGGAUCCUACAGCCAAGCUCCAAGUCAA` the log2 enrichment was 1.37.
The log2 enrichment of `UCAAGUCCUGUGCUACACAUCGUAUGUACCGAAUCGGAGGAAAGGUUUUUUUGGAAAGUAUUAUGUUACGCCGUUCGGAUCUGCACUUCC` is reported as -0.34.
The log2 enrichment of `CUCAAGUCCUGUGCUACACAUCGUAUGUACCGAAUCGGAGGAAAAAGGUUUGGAAAGUAUUAUGUUACGCCGUUCGGAUCUGCACUUCCA` is reported as -1.11.
For `UGGCCCUGGUGGCAUGCGGGGAGGAAGAGGUGGCCUCAUGGAUCGUGGUGGUCCCGGUGGAAUGUUCAGAGGUGGCCUUGGUGGAGACAG`, the log2 enrichment was 0.538.
For `CCUCAAGUCCUGUGCUACACAUCGUAUGUACCGAAUCGGUGGAGGAAAAAGGAAAGUAUUAUGUUACGCCGUUCGGAUCUGCACUUCCAG`, the log2 enrichment was 0.659.
The log2 enrichment of `UGGAUAUGGUUAUAGAAGAAGUGGCCGAGAUAAAUAUGGCCCUCCUACUCGCACAGAGUACAGACUUAUUGUGGAGAAUUUGUCAAGUCG` is reported as -1.97.
With `AAGUCCUGUGCUACACAUCGUAUGUACCGAAUCGGAAAAAAAGGUUUUUGGAAAGGAAAGUAUUAUGUUACGCCGUUCGGAUCUGCACUU` the log2 enrichment was -2.72.
For `ACCAUGCAGGUGGGCAUCUUUGGGAAGUGGGGCAAGGGGGGGAAAAGGAGGGGGGUAACACUUUGGGAACAGGUGGUCCCAGGUCGUUUC`, the log2 enrichment was 1.16.

Set 2
Target: Histone acetyltransferase KAT6A, both winged helices, GST fusion (KAT6A, Homo sapiens, UniProt Q92794, residues 1-181)
Method: protein binding microarray
Form: double-stranded DNA, one strand shown
Medium: in vitro
Concentration: not given
Notes: 8-mer, flanks averaged, mean of 2 arrays, mostly near background
Relative to: not given
Direction: higher = stronger binding
Residues (chain): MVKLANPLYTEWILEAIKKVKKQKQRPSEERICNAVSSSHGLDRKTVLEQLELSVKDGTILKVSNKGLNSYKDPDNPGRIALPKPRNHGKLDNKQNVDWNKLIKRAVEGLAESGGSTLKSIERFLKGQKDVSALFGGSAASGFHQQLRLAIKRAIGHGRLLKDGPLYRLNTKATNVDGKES
For `TACAAGGA`, the E-score was -0.0127.
The E-score of `ACCTGTCC` is reported as -0.0858.
The E-score of `ATCCGCTA` is reported as 0.267.
For `ACCTATCC`, the E-score was -0.103.
With `ACAATGCA` the E-score was -0.0605.
`ATTCTCCG` has an E-score of 0.11.
For `AACATAGG`, the E-score was -0.0481.
`AGGCAACA` gave an E-score of -0.12.

Single results of other studies
B1: MID1 RING domain (UniProt O15344); chain METLESELTCPICLELFEDPLLLPCAHSLCFNCAHRILVSHCATNESVESITAFQCPTCRHVITLSQRGL
`B1 (MID1 RING domain)`: “lacZ reporter activity” 0 (UBE2D2 UBC core domain (UniProt P62837); yeast two-hybrid; yeast; mostly zero background; relative to: not given, higher = stronger interaction).
For `EYYFRNEVF`, binding read “inactive” (HLA class I histocompatibility antigen, A alpha chain, allele A*26:03 (Homo sapiens, UniProt P04439); peptide-MHC binding; peptide; concentration not given).

Excerpt of the above (single results of other studies):
For `EYYFRNEVF`, binding read “inactive” (HLA class I histocompatibility antigen, A alpha chain, allele A*26:03 (Homo sapiens, UniProt P04439); peptide-MHC binding; peptide; concentration not given).
`B1 (MID1 RING domain)`: “lacZ reporter activity” 0 (UBE2D2 UBC core domain (UniProt P62837); yeast two-hybrid; yeast; mostly zero background; relative to: not given, higher = stronger interaction).
